Earlier results, collected from citations in different studies.
Compare with care: the assays were run in different laboratories. Numbers after ± are the reported error.
UniProt O35627, sequence (whole entry, unmodified, looked up): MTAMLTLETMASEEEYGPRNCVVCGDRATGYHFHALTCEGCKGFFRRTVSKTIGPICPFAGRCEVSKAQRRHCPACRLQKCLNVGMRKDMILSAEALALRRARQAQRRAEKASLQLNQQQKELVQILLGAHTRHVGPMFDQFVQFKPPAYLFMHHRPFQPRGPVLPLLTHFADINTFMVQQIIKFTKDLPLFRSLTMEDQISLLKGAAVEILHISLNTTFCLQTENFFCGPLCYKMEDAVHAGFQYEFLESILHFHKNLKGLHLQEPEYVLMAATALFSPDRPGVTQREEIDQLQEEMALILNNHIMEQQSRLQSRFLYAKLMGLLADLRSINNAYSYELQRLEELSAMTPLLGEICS

C#CCCCCC(=O)N(C)[C@H](C(=O)N(C)[C@H](C(=O)N(C)[C@H](C(=O)N(C)[C@@H](C)C(=O)N(C)[C@@H](Cc1ccccc1)C(=O)N(C)C)C(C)C)C(C)C)C(C)C
IC50 (Leishmania donovani): 3.1 µM

C/C=C1\NC(=O)[C@H]2CSSCC/C=C/[C@H](CC(=O)N[C@H](C(C)C)C(=O)N2)OC(=O)[C@H](C(C)C)NC1=O
IC50 (Trypanosoma brucei; growth; bloodstream form): 0.035 µM

COc1ccc2sc(N(Cc3cccnc3)C(=O)c3ccc(C#N)cc3)nc2c1
IC50 (Trypanosoma brucei rhodesiense; STIB 900): 16.1 µM

Nc1nc2c(nc(Sc3ccc(Cl)cc3)n2C2OC3COP(O)(=S)OC3C2O)c(=O)[nH]1 (stereo not drawn)
Km or Ki (PDE4D; cyclic nucleotide hydrolysis, substrate or inhibitor, isothermal titration calorimetry): 137 µM

CC1CS(=O)(=O)CCN1/N=C/c1ccc([N+](=O)[O-])o1 (stereo not drawn)
IC50 (Trypanosoma congolense; IL3000): 1.06 ± 0.22 µM

C=CCCCCCC(=O)N(C)[C@H](C(=O)N(C)[C@H](C(=O)N(C)[C@H](C(=O)N(C)[C@@H](C)C(=O)N(C)[C@@H](Cc1ccccc1)C(=O)OC)C(C)C)C(C)C)C(C)C
IC50 (Leishmania donovani): > 14 µM

CCCCCCCCCCCCCCCCOP(=O)([O-])OCC[N+](C)(C)C
IC50 (Trypanosoma brucei rhodesiense; parasite growth; in vitro): 47 µM

N=C(N)c1ccc(OCCCCCOc2ccc(C(=N)N)cc2)cc1
IC50 (Trypanosoma congolense; IL3000): 0.33 ± 0.05 µM

Cc1cc2nc(N)[nH]c2cc1C
IC50 (Pseudomonas aeruginosa; LasR quorum sensing; PAO1 reporter): 37.5 µM

CC[C@H](C)[C@H](NC(=O)[C@H](CCCCN)NC(=O)[C@H](Cc1c[nH]cn1)NC(=O)[C@@H](N)CCCNC(=N)N)C(=O)N[C@@H](CC(C)C)C(=O)N[C@@H](Cc1c[nH]cn1)C(=O)N[C@@H](CCCNC(=N)N)C(=O)N[C@@H](CC(C)C)C(=O)N[C@@H](CC(C)C)C(=O)N[C@@H](CCC(N)=O)C(=O)N[C@@H](CCC(=O)O)C(=O)NCC(=O)N[C@@H](CO)C(=O)O
ΔH (Nuclear receptor subfamily 1 group I member 3, with RXR (Mus musculus, UniProt O35627); binding, isothermal titration calorimetry; pH 7.2, 25°C, together with: TCPOBOP, fourfold excess): -10 ± 0.3 kcal/mol

NCCCC(N)(C(=O)O)C(F)F (stereo not drawn)
IC50 (Trypanosoma brucei brucei; cell growth; GUTat3.1): 38.6 ± 9.88 µM

CCC(C)c1c(O)ccc2c1CC[C@@H]1[C@@H]2CC[C@]2(C)C(=O)CC[C@@H]12 (stereo partly drawn)
EC50 (HT-22; cell protection; together with: iodoacetic acid 40 µM): 0.828 µM

CC(=O)c1ccc(NC(=O)CSc2nc(-c3ccccc3Cl)ns2)cc1
IC50 (Trypanosoma brucei brucei; Squib 427): > 32 µM

O=C1c2cccc3c2[C@H](CCC3)CN1[C@@H]1CN2CCC1CC2
Tmax (healthy volunteers, plasma; oral, dose not given, netupitant-palonosetron combination, together with: oral contraceptives): 3.92 h

Clc1cccc(Nc2ccc3c(N4CCCCC4)ncnc3n2)c1
IC50 (Plasmodium falciparum; 3D7; 72 h, whole cell): 0.577 µM

c1ccc(CNc2nc(Nc3ccccc3)nc3ccccc23)cc1
IC50 (Trypanosoma brucei brucei; Squib 427): 3.4 µM

CCCCCCCCCCCCCCCC[N+](C)(C)C
IC50 (Theileria equi; growth): 14 µM

C[C@@]12CC[C@H]3c4ccc(O)cc4CC[C@@H]3[C@H]1CC[C@H]2O (single isomer, unassigned)
EC50 (HT-22; cell protection; together with: glutamate 10 mM): 0.936 µM

Cc1nc2ccccc2c(O)c1CC=C(Cl)Cl
IC50 (Trypanosoma brucei rhodesiense; STIB 900): > 32 µM

O=C(Nc1ncnc2c1ncn2[C@@H]1O[C@@H]2COP(=O)(O)OC2C1O)c1ccccc1 (stereo in doubt)
Km or Ki (PDE5; cyclic nucleotide hydrolysis, substrate or inhibitor, isothermal titration calorimetry): 68.9 µM

c1ccc(-c2ccc(-c3nc4ccccc4[nH]3)cc2)cc1
IC50 (Trypanosoma brucei rhodesiense; STIB 900): > 32 µM

N=C(N)c1cccc(/C=N/N=C(\N)N/N=C/c2cccc(C(=N)N)c2)c1
IC50 (Trypanosoma cruzi; parasite growth): 20 µM

CCOC(=O)c1c(C)n(-c2ccccc2)c2ccc(OC(=O)c3cc(OC)c(OC)c(OC)c3)cc12
IC50 (Trypanosoma brucei brucei; Squib 427): 16.2 µM

Cc1ccc(C(=O)Nc2ccc(S(=O)(=O)O)c3cc(S(=O)(=O)O)cc(S(=O)(=O)O)c23)cc1NC(=O)c1cccc(NC(=O)Nc2cccc(C(=O)Nc3cc(C(=O)Nc4ccc(S(=O)(=O)O)c5cc(S(=O)(=O)O)cc(S(=O)(=O)O)c45)ccc3C)c2)c1
IC50 (Trypanosoma evansi; cell growth; Tansui): 0.38 ± 0.058 µM
